# Results from different studies.
# Parts stem from different laboratories: compare values within a part only. Substitutions count along the parent as printed.

# Set 1
# Target: Interferon regulatory factor 7, full length, phosphomimetic (IRF7, Homo sapiens, UniProt Q92985, residues 1-503, S471D/S472D/S475D/S476D/S477D/S483D/S484D/S487D)
# Method: protein-binding microarray
# Molecule type: double-stranded DNA, one strand shown
# Sample: in vitro
# Tested at: 2200 nM top
# Setting: 60-bp whole probe
# Added: salmon DNA 0.4 mg/ml
# Relative to: random background probes
# Reading: higher = stronger binding
# All sequences stand within: GCCTAGCAC … GTCTTGATTCGCTTGACGCTGCTG
# Target sequence (chain): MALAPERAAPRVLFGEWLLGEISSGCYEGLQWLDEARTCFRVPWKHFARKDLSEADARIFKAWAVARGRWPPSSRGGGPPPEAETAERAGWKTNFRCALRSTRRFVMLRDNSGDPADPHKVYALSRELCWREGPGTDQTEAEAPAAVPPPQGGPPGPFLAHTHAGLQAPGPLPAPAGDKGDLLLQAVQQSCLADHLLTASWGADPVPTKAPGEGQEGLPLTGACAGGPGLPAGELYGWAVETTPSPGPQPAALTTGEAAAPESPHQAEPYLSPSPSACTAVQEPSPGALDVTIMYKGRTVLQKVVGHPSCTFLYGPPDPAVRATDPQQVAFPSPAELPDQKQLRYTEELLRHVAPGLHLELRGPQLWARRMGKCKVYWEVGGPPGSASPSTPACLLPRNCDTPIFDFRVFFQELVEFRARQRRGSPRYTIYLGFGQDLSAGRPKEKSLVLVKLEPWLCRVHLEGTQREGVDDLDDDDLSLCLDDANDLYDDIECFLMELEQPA
Oligonucleotide,fitted relative affinity [z-score]
TCATATATTATATATTTAACTGTGCTA,0.609
TTAGGTTTCGGTATCAGTTAGTGCTAG,6.65
TTCGGTCTCGGACTGGGTTAGTGCTAG,0.175
ATAGGACTGGACACTGGGTTAGTGCTA,-0.597
GACGATTTTGGGTATCGAGACGTGCTA,0.933
GACGACATCAGACTGGAGACGTGCTAG,-0.0822
TCACATCTGATTTCTCAAACTGTGCTA,1.22
TGAGATTTCGGGTATCGATTAGTGCTA,2.74
TTAGATCTCAGACTGGATCAGTGCTAG,-0.0662
GACGGACTGGACACTGGTGACGTGCTA,-0.562

# Set 2
# Target: RNA binding protein fox-1 homolog 2, RRM domain, GST-SBP tag (RBFOX2, Homo sapiens, UniProt O43251-10, residues 100-194)
# Method: RNA Bind-n-Seq
# Molecule type: RNA
# Sample: in vitro
# Tested at: 365 nM
# Setting: natural RNA segment, single round, ends assumed
# Relative to: no-protein control
# Reading: higher = stronger binding
# All sequences stand within: GGGAGUUCUACAGUCCGACGAUC … UGGAAUUCUCGGGUGCCAA
# Residues (chain): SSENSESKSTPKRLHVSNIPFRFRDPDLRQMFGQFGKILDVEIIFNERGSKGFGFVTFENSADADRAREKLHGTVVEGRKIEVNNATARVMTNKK
Oligonucleotide,RBNS enrichment (R)
CAGCCCCAGCCCCAGCUCCAGCCCUGAGGACAGCUCUGAUGGGAGAGCUGGGCCCCCUGAGCCCACUGGGUCUUCAGGGUGCACUGGAAGCUGGUGUUCGCUGUCCCCUG,0.338
AGCAUGCACGUGAAAAUAGAAAGGUAAUUUAACAACACACAGACACCCAGAGACUUGGUCUCUGCAUGUGUGUAGAAGUAGUGGUGUGGGGAGGGAUGGGACUCACUCAG,16.2
CUGUUUUUUAUAUGUAAAAACAAAACAAGAAAAAUAGAGAAUUCUACAUACUAAAUCUCUCUCCUUUUUUAAUUUUAAUAUUUGUUAUCAUUUAUUUAUUGGUGCUACUG,1.01
GGGAUGCUGGUGGCUCUUCAGAGGAGCAUCAGCUGUCUGUCAUCUGCUGCGAUCCGGCAGCCUCUCUUCACUGCUACAUGUGCUGGAAGGACAAAUAAAUAAUUGUGGUU,0.417
UGCUAGAAUAAAGCAGAAGGGCUUUCCUAACAUGCUUUAGAGCUUUUAUUGCUUCUUACUGAUACUGACUUAGAAAGCUUUCUGGGUUUUGUAUUUGUUUUAAGAAACAU,0.248
UGCAGAUGGAUCCCAGAACCUGCAGCUACCACGGACACCAGGAGGCCCUCGGGCCACUUGGUGGAAGGACCCUAAGCACACUGUUCAUGAAGAACACAGGGAUAAAGCAA,0.327
CAGUCCCAACUGCAGUUUUAUUUUUACUUCAGAAGUAGAUUUCCUUCAAACCACAUGAGAUCUCUGCCACCCACCCACAAUCAAGCCCUAUAUUCCCAAGGAGGCUGACU,0.628
AUGGUAAUUUGAUAUAUGGUAUUUAUAUUGGCAUUUUUCAAUCCAGUGUCAGUAGCUGUCACGCGCAUUUGUGGUGCUUUGAUGUUUGCGAGUCUAACCUCCUCUCAUAA,0.883
AGAUGUUUGUAAUCGUUUUCAGUCUCCUGCAGGUUUCUGUGCCCCUGUGGUGGAAGAGGGCACGACAGUGCCAGCGCAGCGUUCUGGGCUCCUCAGUCGCAGGGGUGGGA,1.14
UACCAUUUAUUGUAUUUGCAAAGCUAGUAUGGUUUUUAAUCACAGUAAAUCCUUUGUAUUCCAGACUUUAGGGCAGAGCCCUGAGGGAGUAUUAUUUUACAUAACCCGUC,0.566

# Set 3
# Target: ABI1, truncated, D143A, DHFR fusion (Arabidopsis thaliana)
# Method: DHFR PCA, deep sequencing
# Sample: yeast
# Setting: methotrexate growth selection, single substitutions
# Added: (+)-ABA 58 µM
# Relative to: wild-type fitted maximum
# Reading: higher = stronger binding
# Parent: PYL1, truncated, DHFR fusion (Arabidopsis thaliana); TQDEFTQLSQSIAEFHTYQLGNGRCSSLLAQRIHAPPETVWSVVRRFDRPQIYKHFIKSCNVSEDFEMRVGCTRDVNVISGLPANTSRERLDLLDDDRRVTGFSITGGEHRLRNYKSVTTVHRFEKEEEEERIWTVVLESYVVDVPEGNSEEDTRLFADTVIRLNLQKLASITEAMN; partner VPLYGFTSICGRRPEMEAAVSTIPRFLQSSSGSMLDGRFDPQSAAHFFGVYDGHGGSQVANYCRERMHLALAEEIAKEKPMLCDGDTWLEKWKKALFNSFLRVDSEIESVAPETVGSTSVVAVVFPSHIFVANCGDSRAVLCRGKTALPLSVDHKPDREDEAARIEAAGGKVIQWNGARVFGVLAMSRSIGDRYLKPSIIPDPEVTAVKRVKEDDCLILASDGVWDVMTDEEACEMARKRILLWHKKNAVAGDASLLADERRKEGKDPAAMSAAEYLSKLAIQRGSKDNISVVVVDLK
Variant,relative binding score [%]
V43Q,38.4
E109V,81.5
L169D,0.0243
Y18M,68.2
A30I,84.9
E130F,89.6
L29S,52.4
D92N,55.4
V40H,6.57

# Single results of other studies
Molecule,target,test,test system,setting,scale,measurement,value
"PhoQ, residues 284 288 289 292 302 303 TNSAEL","PhoP, residues 12 14 15 18 19 LHHSG (Escherichia coli, UniProt P23836)","Sort-seq, measured: YFP reporter",E. coli,"PhoQ-PhoP variant library, added: 10 µM Mg2+","relative to: high Mg2+ state, higher = stronger signaling",fold induction,16.6
